Measurements collected from several papers.
Numbered parts are unrelated; each lists some results of a single study. Substitutions count along the parent as printed.

Block 1
Target: RNA binding protein fox-1 homolog 2, RRM domain, GST-SBP tag (RBFOX2, Homo sapiens, UniProt O43251-10, residues 100-194)
Technique: RNA Bind-n-Seq
Molecule type: RNA
Medium: in vitro
Tested at: 365 nM
Setting: natural RNA segment, single round, ends assumed
Reference: no-protein control
Reading: higher = stronger binding
Shared flanks, not repeated: GGGAGUUCUACAGUCCGACGAUC … UGGAAUUCUCGGGUGCCAA
Residues (chain): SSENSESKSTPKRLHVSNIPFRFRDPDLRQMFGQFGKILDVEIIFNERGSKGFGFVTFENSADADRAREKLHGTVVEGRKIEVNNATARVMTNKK
Under “RBNS enrichment (R)”, `UGGGCCACUCAGAGCCUUCCUUGAUGCUGCCAGAGUCUUCUUAUUUAGAUUUUCUGUCUUAAACCAUUGGAAGCAAAACGGUUUUCCCAUGACAUUCUGGCCUUGGACAG` is recorded as 0.332.
For `GUUCAACGCUCAGCUUUUCCGAAAACCUAAAGCUUGUGUUCUCUUUGCUUUGACUGCAAAUUGUACUGCUCUUGUUUUUUUAAUUUUUUUCUUGGUCAUGGUCUGUAAAU`, “RBNS enrichment (R)” read 0.84.
`GCACAGCGACCUCCAGGGCACCUCUGCGGAGUGACUAGCCACAGGCAGAGCUGCAUUGUGGUAUAUAUACUGAGAGAUCUGCAUUGUUCACCUGCCAGACUGGGAUUUUC`: “RBNS enrichment (R)” 0.401.
`CAGAUCCAAGCAUAUAAAAAGCCUGUAUAUUUUUUAAAAACACAUCUUAACUCCACGCUUUACGAUAUUAUAAAAGUUGAAUGGUUCCUCUUGGUAAGGAUAUUUGCUUA`: “RBNS enrichment (R)” 0.697.
For `CCAGUUUGGUCUCAGGCAUAGCCUGAGCAGAUCUUAGUUUUGCCCCCACCACCAUAGUUUUGUGCUAUCCUAGUUUCUGUUAAGAUUGGUGCUAUCCAAUUCCCAUCACU`, “RBNS enrichment (R)” read 0.326.
Under “RBNS enrichment (R)”, `UCUUAACCAUAAGAAUUGAAAUGGUGAAGAAACAAGUAUACACUAGAGGCUCUUAAAAGUAUUGAAAGACAAUACUGCUGUUAUAUAGCAAGACAUAAACAGAUUAUAAA` is recorded as 1.52.
Under “RBNS enrichment (R)”, `GUGGGAAAUUAAGAUUACAGAUGCUUUGGGCCCCCUCAAACAGUACAUUGCUACAGUUCACUGUAGCAACAGAUUUGGUGGUGAUGGGGGGAUAGAGGUAGAAGCAGAUA` is recorded as 0.507.
Under “RBNS enrichment (R)”, `UAUUUCAAUAACAAAUGGUGCUGCUAACACCCAACAUUUCCUAAAUUAUUUUCUAUCAUACAGUUUUCAUUGGUUAUAUGAGUAUGUCUACCCAAUAAAUCACUGAAUUU` is recorded as 0.627.

Block 2
Target: Interferon regulatory factor 5, full length, phosphomimetic (IRF5, Homo sapiens, UniProt Q13568-2, residues 1-514, K96S/S451D/S453D/S456D/S462D)
Technique: protein-binding microarray
Molecule type: double-stranded DNA, one strand shown
Medium: in vitro
Tested at: 250 nM
Setting: 60-bp whole probe
With: salmon DNA 0.4 mg/ml
Reference: random background probes
Reading: higher = stronger binding
Shared flanks, not repeated: GCCTAGCAC … GTCTTGATTCGCTTGACGCTGCTG
For `ACTTTTTTTAATTGAGAAGCGTGCTAG`, the log fluorescence was 0.461 z-score.
The log fluorescence of `GACGATAACAGTATCGAGACGTGCTAG` is reported as 2.8 z-score.
`TCATGTCAACTTTCTCTGACTGTGCTA` gave a log fluorescence of 1.04 z-score.
For `GACGGTTTTGGGTTTCGGGACGTGCTA`, the log fluorescence was 2.82 z-score.
With `TTAGAACTGGGGTAACGATTAGTGCTA` the log fluorescence was 0.114 z-score.

Block 3
Target: CCND1, cyclin fold, Cln2 fusion (human)
Technique: yeast growth competition, sequencing
Medium: yeast
Setting: weak parent motif
Reference: not given
Reading: higher = stronger binding
Parent: SLBP docking peptide (human); ARYKRKLLINDFG
For `ARYKRKLLLNDFG [I9L]`, “normalised enrichment score” read 0.0691.
`ARYKRKLLINCFG [D11C]`: “normalised enrichment score” 0.396.
For `ARYKRKLLINSFG [D11S]`, “normalised enrichment score” read 0.177.
`ARTKRKLLINDFG [Y3T]` — result for “normalised enrichment score”: -0.289.

Other studies, line by line
`PhoQ, residues 284 288 289 292 302 303 SVTLVV` has a fold induction of 2.22 (PhoP, residues 12 14 15 18 19 TTLRV (Escherichia coli, UniProt P23836); Sort-seq, item: YFP reporter; E. coli; PhoQ-PhoP variant library, with: 10 µM Mg2+; reference: high Mg2+ state, higher = stronger signaling).

Repeated from above (block 1):
Under “RBNS enrichment (R)”, `GUGGGAAAUUAAGAUUACAGAUGCUUUGGGCCCCCUCAAACAGUACAUUGCUACAGUUCACUGUAGCAACAGAUUUGGUGGUGAUGGGGGGAUAGAGGUAGAAGCAGAUA` is recorded as 0.507.
Under “RBNS enrichment (R)”, `UCUUAACCAUAAGAAUUGAAAUGGUGAAGAAACAAGUAUACACUAGAGGCUCUUAAAAGUAUUGAAAGACAAUACUGCUGUUAUAUAGCAAGACAUAAACAGAUUAUAAA` is recorded as 1.52.
`CAGAUCCAAGCAUAUAAAAAGCCUGUAUAUUUUUUAAAAACACAUCUUAACUCCACGCUUUACGAUAUUAUAAAAGUUGAAUGGUUCCUCUUGGUAAGGAUAUUUGCUUA`: “RBNS enrichment (R)” 0.697.
